Results collected from several papers.
Values joined by “and” are separate records of one study, mostly repeats; a detail may differ. Numbers after ± are the reported error.
SLC6A9: Sodium- and chloride-dependent glycine transporter 1 (SLC6A9, Homo sapiens, UniProt P48067)
Cd274: Programmed cell death 1 ligand 1 (Cd274, Mus musculus, UniProt Q9EP73)
Gria2/Glutamate receptor 3: Gria2/Glutamate receptor 3 (Rattus norvegicus, UniProt P19491+P19492)
USP14: Ubiquitin carboxyl-terminal hydrolase 14 (USP14, Homo sapiens, UniProt P54578)

Structure (SMILES) | target or system | assay | test system | setting | scale | measurement | value
O=[N+]([O-])c1cc(Br)cc([N+](=O)[O-])c1NS(=O)(=O)c1ccc(Br)cc1 | PYL5, with HAB1 (Arabidopsis thaliana, UniProt Q9FLB1) | antagonist |  | 40 µM, together with: ABA 5 µM | higher = more HAB1 activity | HAB1 phosphatase activity | 0.098 a.u. and 0.097 a.u. and 0.096 a.u.
CCOC(=O)c1ccc(C(OCCN2CCCC(C(=O)OCC)C2)(c2ccc(OC)cc2)c2ccc(OC)cc2)cc1 (centres unmarked) | SLC6A9 | cell-free assay |  | 1 µM |  | remaining signal | 91.8%
O=C(N1CCCC1)n1cc(-c2ccc(-c3ccccc3)cc2)nn1 | Acyl-protein thioesterase 2 (Mus musculus, UniProt Q9WTL7) | probe labelling, inhibitor, competitive ABPP-SILAC, item: Lypla2 | mouse T cells | concentration not given, 4 h, protein level | reference: treated over DMSO cells, lower = stronger inhibition | SILAC activity ratio | 1.35
COC(=O)[C@@]1(Cc2ccccc2)C=C(C(=O)OC(C)(C)C)C(=O)CC1 | Mitogen-activated protein kinase 14 (MAPK14, Homo sapiens, UniProt Q16539, C162A) | peptide binding, fluorescence polarization |  | 31.25 µM |  | fraction bound | 0.594
CC[C@H](C)[C@H](NC(C)=O)C(=O)N[C@@H](Cc1ccc(O)cc1)C(=O)N[C@@H](CC(C)C)C(=O)N[C@@H](CS)C(=O)NCC(=O)N[C@@H](C)C(=O)N[C@H](C(=O)N[C@@H](CO)C(=O)N[C@@H](CC(C)C)C(=O)N[C@@H](Cc1c[nH]cn1)C(=O)N1CCC[C@H]1C(=O)N[C@@H](CCCCN)C(=O)N[C@@H](C)C(=O)N[C@@H](CCCCN)C(=O)N[C@H](C(=O)N[C@@H](CCC(=O)O)C(=O)N[C@@H](CCC(=O)O)C(=O)N[C@@H](CO)C(=O)N1CCC[C@H]1C(=O)NCC(=O)N[C@@H](C)C(N)=O)[C@@H](C)CC)[C@@H](C)CC | Cd274 | AFM force spectroscopy | PBS | pH 7.4 |  | dissociation rate constant | 0.011 s⁻¹
O=C(O)Cc1cc2c(cc1C(=O)c1ccccc1Cl)OCO2 | Gria2/Glutamate receptor 3 | glutamate-evoked current, whole-cell patch clamp | HEK-293T | concentration not given, weighted tau, 500 ms pulse, together with: glutamate |  | desensitization time constant | 1 ± 0.1 ms
O=C1c2sc(-c3ccc(N4CCC(CO)CC4)nc3F)nc2CCN1c1cccnc1 | TAR DNA-binding protein 43, aggregated (TARDBP, Homo sapiens, UniProt Q13148) | radioligand binding | control brain sarkosyl-insoluble extract | 3.53 nM |  | specific binding | -0.012 nM
C[C@H](NC(=O)CN)C(=O)NCC(=O)N[C@@H](C)C(=O)N[C@@H](C)C(=O)NCC(=O)NCC(=O)N[C@@H](C)C(=O)NCC(=O)NCC(=O)NCC(=O)NCC(=O)NCC(=O)NCC(=O)NCC(=O)N[C@@H](CCCCNC(=O)CCCC[C@@H]1SC[C@@H]2NC(=O)N[C@@H]21)C(N)=O | Cd274 | flow cytometry | mPD-L1-expressing cells | concentration not given |  | binding rate | 0.44% and 0.4% and 0.59%
O=C(Nc1cc(C(=O)Nc2ccc(S(=O)(=O)O)cc2S(=O)(=O)O)cc(C(=O)Nc2ccc(S(=O)(=O)O)cc2S(=O)(=O)O)c1)Nc1cc(C(=O)Nc2ccc(S(=O)(=O)O)cc2S(=O)(=O)O)cc(C(=O)Nc2ccc(S(=O)(=O)O)cc2S(=O)(=O)O)c1 | P2X purinoceptor 1 (P2RX1, Homo sapiens, UniProt P51575) | antagonist, calcium influx |  | 31.6 µM, together with: submaximal α,β-methylene ATP | reference: ionomycin response | calcium influx | 0.452% and 2.63% and 2.17%
C=C=C(CN1CCCC(C(=O)O)C1)C(c1ccc(OC)cc1)(c1ccc(OC)cc1)c1ccc(OC)cc1 (centres unmarked) | SLC6A9 | cell-free assay |  | 1 µM |  | remaining signal | 22.4%
COc1cc(Nc2nccc(-c3cnn4nc(OC)ccc34)n2)cc(C(F)(F)F)c1 | Phosphatidylinositol 4,5-bisphosphate 3-kinase catalytic subunit alpha isoform (PIK3CA, Homo sapiens, UniProt P42336, E545A) | binding |  | 1 µM |  | remaining binding | 89%
N[C@H]1CC[C@H](Nc2nccc(-c3cccnc3Oc3ccc(NC(=O)NC4CC4)c4ccccc34)n2)CC1 | 5'-AMP-activated protein kinase subunit beta-1 (PRKAB1, Homo sapiens, UniProt Q9Y478) | kinobead competition pulldown | HEK293/HCT116 lysate mixture | 10 µM, 1 h, 4 °C | lower = stronger competition | log2 LFQ intensity | 29 and 28.9 and 28.8 and 29.1
NC(=O)C[C@@H]1NC(=O)[C@H](Cc2ccc(O)cc2)NC(=O)CNC(=O)CNC(=O)[C@H](CCC(=O)O)NC(=O)[C@H](CCC(=O)O)NC(=O)[C@H](Cc2ccccc2)NC(=O)[C@@H]2CCCN2C1=O | EH domain-containing protein 1, EH domain (Homo sapiens, UniProt Q9H4M9) | peptide binding, ITC |  | concentration not given, 15 mM NaCl |  | binding stoichiometry | 1.01 and 1.04 and 1.17 and 0.881
CCCCCC=CC=C1C(=O)C=CC1CC=CCCCC(=O)O (centres unmarked) | DNA polymerase epsilon subunit 3 (Homo sapiens, UniProt Q9NRF9) | competitive isoTOP-ABPP, item: POLE3 cysteine peptide | Ramos soluble proteome | 100 µM, together with: iodoacetamide probe | reference: DMSO over compound-treated, higher = stronger cysteine blockade | isoTOP-ABPP competition ratio | 1.5
CC[C@H](C)[C@H](NC(=O)[C@@H](NC(=O)[C@@H](NC(=O)[C@@H](NC(=O)[C@H](CCCNC(=N)N)NC(=O)[C@H](CCC(=O)O)NC(=O)[C@H](CCC(=O)O)NC(=O)[C@H](C)NC(=O)[C@H](CCC(=O)O)NC(=O)CNC(=O)[C@H](C)NC(=O)CN)C(C)C)C(C)C)C(C)C)C(=O)N[C@@H](CC(=O)O)C(=O)N[C@@H](CC(=O)O)C(=O)N[C@@H](CC(=O)O)C(=O)N[C@@H](CCC(=O)O)C(=O)N[C@@H](CC(=O)O)C(=O)N[C@@H](CC(=O)O)C(=O)N[C@@H](CC(=O)O)C(=O)N[C@@H](C)C(=O)N[C@@H](CCC(=O)O)C(=O)N[C@@H](CC(N)=O)C(=O)N[C@@H](CO)C(=O)N[C@@H](CO)C(=O)N[C@@H](CO)C(=O)N[C@@H](CCCNC(=N)N)C(=O)N[C@@H](Cc1ccc(O)cc1)C(=O)O | Small ubiquitin-related modifier 1 (Homo sapiens, UniProt P63165, C52A) | isothermal titration calorimetry |  | concentration not given, pH 7.4, SUMO1 construct |  | enthalpy change (ΔH) | 5.25 ± 0.03 kcal/mol
CN(Cc1cc(C2CC2)on1)C(=O)c1cccc(-c2ccc3c(c2)CCO3)c1 | Acetyl-CoA synthetase (Cryptococcus neoformans, UniProt J9VFT1) | enzyme activity, inhibitor, coupled pyrophosphate |  | 6.25 µM | higher is more activity | reaction rate | 0.00166 a.u.
O=C(O)Cc1cc2c(cc1C(=O)c1cccc(Cl)c1)OCO2 | Gria2/Glutamate receptor 3 | glutamate-evoked current, whole-cell patch clamp | HEK-293T | concentration not given, pH 7.4, holding potential -60 mV, together with: 10 mM glutamate |  | current amplitude | 58 ± 4 pA
CC(=O)NCC1CCCCN1c1nc(NCC2Cc3ccccc3O2)nc(N2CC3C(CCOc4cc(-c5scnc5C)ccc4CNC(=O)C4CC(O)CN4C(=O)C(NC(=O)C4(F)CC4)C(C)(C)C)C3C2)n1 (centres unmarked) | VHL/BRD9 (Homo sapiens, UniProt P40337+Q9H8M2) | BRD9 degradation, degrader, HiBiT | HEK293T BRD9-HiBiT | 15 h |  | Dmax | 77%

Structure (SMILES) | target or system | assay | test system | setting | scale | measurement | value
Cc1oc2c(c1C(=O)NCc1ccccc1)C(=O)c1ccccc1C2=O | USP14 | enzyme activity, inhibitor |  | 17 µM |  | inhibition | 34%
Cc1ccc(C)n1-c1ccc(OCC(=O)O)cc1 | Rac GTPase-activating protein 1 (Homo sapiens, UniProt Q9H0H5) | enzyme activity, inhibitor, ADP detection |  | 10 µM |  | inhibition | 55%
COc1cc(C=NCCN=Cc2ccc(O)c(OC)c2)ccc1O | USP14 | enzyme activity, inhibitor |  | 17 µM |  | inhibition | 16%
OB(O)c1sccc1/C=N/OCc1ccccc1 | Neutrophil elastase (ELANE, Homo sapiens, UniProt P08246) | enzyme activity, inhibitor, progress curves |  |  |  | association rate constant | 97 ± 6.2 M⁻¹ s⁻¹
CCCCCC(O)/C=C/C=O (centres unmarked) | Myosin-9 (MYH9, Homo sapiens, UniProt P35579) | competitive isoTOP-ABPP | proteome, soluble, MDA-MB-231 | 100 µM, together with: iodoacetamide probe | reference: DMSO over compound-treated, higher = stronger cysteine blockade | isoTOP-ABPP competition ratio | 1.7
COC(=O)[C@]1(C(C)C)C=C(C(=O)Nc2cccc(C(=O)Nc3ccc(Nc4nccc(-c5cccnc5)n4)c(C)c3)c2)C(=O)CC1 | Mitogen-activated protein kinase 8 (MAPK8, Homo sapiens, UniProt P45983, C116S) | binding, SPR |  | 100, 300, 1000 nM, 1:1 binding model |  | koff | 0.127 s⁻¹
CCCCCCCO[C@H]1[C@H](OC)O[C@H](CO)[C@@H](O)[C@H](O)[C@@H]1O | Type 1 fimbrin D-mannose specific adhesin, lectin domain (fimH, Escherichia coli K-12, UniProt P08191) | binding, isothermal titration calorimetry |  | 25 °C |  | ΔH | -6.6 kcal/mol and -6.76 kcal/mol
CC1(C)CC(=O)C(=NNc2ccc3c(c2)OCO3)C(=O)C1 | USP14 | enzyme activity, inhibitor |  | 17 µM |  | inhibition | 6%
Fc1cccc(-c2cc(CN3c4ccccc4C=Cc4ccccc43)on2)c1 | PPO3 (Agaricus bisporus, UniProt C7FF04) | enzyme activity, inhibitor |  | concentration not given |  | apparent Vmax | 30.9 µmol/min
COC(=O)Cc1cc2c(cc1C(=O)c1ccccc1I)OCO2 | Gria2/Glutamate receptor 3 | glutamate-evoked current, whole-cell patch clamp | HEK-293T | concentration not given, glutamate alone after washout, together with: glutamate |  | current amplitude after recovery | 450 ± 29 pA
N#Cc1cnc2sc(C(=O)O)cc2c1N1CCc2[nH]nc(C(=O)N[C@@H](CC(=O)NCCOCCN3CCOCC3)c3cccc(Br)c3)c2C1 | Interleukin-1 receptor-like 2 (IL1RL2, Homo sapiens, UniProt Q9HB29) | reporter gene (SEAP), inhibitor, HEK-Blue IL-36R reporter | HEK-Blue IL-36R cells | 100 µM, 6 h, together with: IL36G 0.01 ng/mL |  | remaining activity | 24.3%
O=S1(=O)C=C(N/C=N/c2ccccc2F)c2ccccc21 | USP14 | enzyme activity, inhibitor |  | 17 µM |  | inhibition | 12%
Cn1c(=O)n(C2CCC(=O)NC2=O)c2ccc(C3CCN(CC(=O)Nc4cccc(CS(=O)(=O)N5CC[C@H](Nc6cccc(-c7sc(C(=O)O)c(OCC(=O)O)c7Cl)c6)CC5(C)C)c4)CC3)cc21 (some centres unmarked) | Tyrosine-protein phosphatase non-receptor type 1 (Mus musculus, UniProt P35821) | degrader, Western blot | B16-F10 | 10 µM |  | remaining protein | 0.5% and 0.7%
CCCCCCOc1ccc(C(=O)OCCN2CC=CCC2)cc1 | Muscarinic acetylcholine receptor M1 (CHRM1, Homo sapiens, UniProt P11229) |  | membranes | 100 µM, 15 h, together with: carbachol | reference: control | Emax | 1.38 ± 0.05 fold
CN(C)c1cccc(-c2ccc3ncnc(Nc4ccc(OCc5cccc(F)c5)c(Cl)c4)c3c2)c1 | Leishmania major | intracellular amastigote growth, luciferase | RAW264.7 macrophages |  |  | EC50 | > 15 µM
Cc1ccc(C2CCN(C3Cc4ccccc4CC3O)CC2)cc1 (racemic) | Sigma non-opioid intracellular receptor 1 (SIGMAR1, Homo sapiens, UniProt Q99720) |  | rat liver (sigma2), human sigma1 |  | reference: Ki sigma2 over Ki sigma1 | selectivity ratio | 10.4
N=C(N)NCCS(=O)(=O)O | Sodium- and chloride-dependent taurine transporter (SLC6A6, Homo sapiens, UniProt P31641, Y138A) | binding, microscale thermophoresis |  | 488 nM, room temperature, together with: 50 nM labelled protein | higher = more binding | normalised MST signal | 0.0702

Excerpt of the above:
Structure (SMILES) | target or system | assay | test system | setting | scale | measurement | value
O=C(O)Cc1cc2c(cc1C(=O)c1ccccc1Cl)OCO2 | Gria2/Glutamate receptor 3 | glutamate-evoked current, whole-cell patch clamp | HEK-293T | concentration not given, weighted tau, 500 ms pulse, together with: glutamate |  | desensitization time constant | 1 ± 0.1 ms
O=C1c2sc(-c3ccc(N4CCC(CO)CC4)nc3F)nc2CCN1c1cccnc1 | TAR DNA-binding protein 43, aggregated (TARDBP, Homo sapiens, UniProt Q13148) | radioligand binding | control brain sarkosyl-insoluble extract | 3.53 nM |  | specific binding | -0.012 nM
C[C@H](NC(=O)CN)C(=O)NCC(=O)N[C@@H](C)C(=O)N[C@@H](C)C(=O)NCC(=O)NCC(=O)N[C@@H](C)C(=O)NCC(=O)NCC(=O)NCC(=O)NCC(=O)NCC(=O)NCC(=O)NCC(=O)N[C@@H](CCCCNC(=O)CCCC[C@@H]1SC[C@@H]2NC(=O)N[C@@H]21)C(N)=O | Cd274 | flow cytometry | mPD-L1-expressing cells | concentration not given |  | binding rate | 0.44% and 0.4% and 0.59%
O=C(Nc1cc(C(=O)Nc2ccc(S(=O)(=O)O)cc2S(=O)(=O)O)cc(C(=O)Nc2ccc(S(=O)(=O)O)cc2S(=O)(=O)O)c1)Nc1cc(C(=O)Nc2ccc(S(=O)(=O)O)cc2S(=O)(=O)O)cc(C(=O)Nc2ccc(S(=O)(=O)O)cc2S(=O)(=O)O)c1 | P2X purinoceptor 1 (P2RX1, Homo sapiens, UniProt P51575) | antagonist, calcium influx |  | 31.6 µM, together with: submaximal α,β-methylene ATP | reference: ionomycin response | calcium influx | 0.452% and 2.63% and 2.17%
C=C=C(CN1CCCC(C(=O)O)C1)C(c1ccc(OC)cc1)(c1ccc(OC)cc1)c1ccc(OC)cc1 (centres unmarked) | SLC6A9 | cell-free assay |  | 1 µM |  | remaining signal | 22.4%
